Measured values of several laboratories.
Parts stem from different laboratories: compare values within a part only.
UniProt Q13976, sequence (whole entry, looked up): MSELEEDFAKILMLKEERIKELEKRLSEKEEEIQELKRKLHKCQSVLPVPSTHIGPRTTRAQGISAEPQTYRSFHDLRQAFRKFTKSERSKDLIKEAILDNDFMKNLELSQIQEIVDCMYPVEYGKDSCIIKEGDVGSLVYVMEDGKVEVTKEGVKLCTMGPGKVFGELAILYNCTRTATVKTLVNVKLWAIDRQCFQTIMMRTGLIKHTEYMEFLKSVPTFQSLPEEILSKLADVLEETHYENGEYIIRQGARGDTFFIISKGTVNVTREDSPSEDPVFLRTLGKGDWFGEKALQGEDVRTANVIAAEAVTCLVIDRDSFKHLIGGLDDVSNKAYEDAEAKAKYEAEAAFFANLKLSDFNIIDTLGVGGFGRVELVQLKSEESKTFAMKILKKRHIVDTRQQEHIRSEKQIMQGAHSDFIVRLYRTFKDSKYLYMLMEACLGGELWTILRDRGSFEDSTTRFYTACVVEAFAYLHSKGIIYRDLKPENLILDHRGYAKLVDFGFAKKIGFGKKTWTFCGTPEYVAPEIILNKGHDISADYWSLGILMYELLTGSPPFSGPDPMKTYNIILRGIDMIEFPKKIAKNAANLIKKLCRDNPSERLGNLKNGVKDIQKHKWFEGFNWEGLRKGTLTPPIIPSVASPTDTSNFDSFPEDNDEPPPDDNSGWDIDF
UniProt Q02779, sequence (whole entry, looked up): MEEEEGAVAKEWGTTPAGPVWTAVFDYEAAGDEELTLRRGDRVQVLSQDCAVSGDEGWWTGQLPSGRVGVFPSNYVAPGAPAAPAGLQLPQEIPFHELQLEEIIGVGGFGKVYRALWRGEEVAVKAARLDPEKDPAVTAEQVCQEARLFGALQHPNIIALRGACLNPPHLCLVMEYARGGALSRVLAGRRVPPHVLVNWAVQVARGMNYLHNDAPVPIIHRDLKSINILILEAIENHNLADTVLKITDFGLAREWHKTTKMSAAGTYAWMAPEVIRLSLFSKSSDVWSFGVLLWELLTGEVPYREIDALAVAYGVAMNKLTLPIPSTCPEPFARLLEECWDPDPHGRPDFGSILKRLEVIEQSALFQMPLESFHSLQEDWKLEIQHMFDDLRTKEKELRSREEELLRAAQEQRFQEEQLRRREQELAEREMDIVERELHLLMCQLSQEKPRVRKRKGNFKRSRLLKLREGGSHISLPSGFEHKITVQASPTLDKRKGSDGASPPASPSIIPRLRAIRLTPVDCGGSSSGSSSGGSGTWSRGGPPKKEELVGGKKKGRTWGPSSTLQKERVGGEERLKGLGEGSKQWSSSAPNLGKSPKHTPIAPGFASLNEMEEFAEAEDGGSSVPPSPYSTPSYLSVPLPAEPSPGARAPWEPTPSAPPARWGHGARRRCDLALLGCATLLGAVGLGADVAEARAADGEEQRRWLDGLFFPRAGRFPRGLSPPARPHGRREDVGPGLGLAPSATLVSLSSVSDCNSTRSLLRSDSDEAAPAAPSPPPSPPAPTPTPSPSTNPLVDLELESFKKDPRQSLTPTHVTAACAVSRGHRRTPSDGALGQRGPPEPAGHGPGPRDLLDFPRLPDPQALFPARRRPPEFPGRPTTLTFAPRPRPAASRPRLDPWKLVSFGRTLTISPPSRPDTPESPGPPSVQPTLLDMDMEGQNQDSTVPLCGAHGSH
UniProt Q12851, sequence (whole entry, looked up): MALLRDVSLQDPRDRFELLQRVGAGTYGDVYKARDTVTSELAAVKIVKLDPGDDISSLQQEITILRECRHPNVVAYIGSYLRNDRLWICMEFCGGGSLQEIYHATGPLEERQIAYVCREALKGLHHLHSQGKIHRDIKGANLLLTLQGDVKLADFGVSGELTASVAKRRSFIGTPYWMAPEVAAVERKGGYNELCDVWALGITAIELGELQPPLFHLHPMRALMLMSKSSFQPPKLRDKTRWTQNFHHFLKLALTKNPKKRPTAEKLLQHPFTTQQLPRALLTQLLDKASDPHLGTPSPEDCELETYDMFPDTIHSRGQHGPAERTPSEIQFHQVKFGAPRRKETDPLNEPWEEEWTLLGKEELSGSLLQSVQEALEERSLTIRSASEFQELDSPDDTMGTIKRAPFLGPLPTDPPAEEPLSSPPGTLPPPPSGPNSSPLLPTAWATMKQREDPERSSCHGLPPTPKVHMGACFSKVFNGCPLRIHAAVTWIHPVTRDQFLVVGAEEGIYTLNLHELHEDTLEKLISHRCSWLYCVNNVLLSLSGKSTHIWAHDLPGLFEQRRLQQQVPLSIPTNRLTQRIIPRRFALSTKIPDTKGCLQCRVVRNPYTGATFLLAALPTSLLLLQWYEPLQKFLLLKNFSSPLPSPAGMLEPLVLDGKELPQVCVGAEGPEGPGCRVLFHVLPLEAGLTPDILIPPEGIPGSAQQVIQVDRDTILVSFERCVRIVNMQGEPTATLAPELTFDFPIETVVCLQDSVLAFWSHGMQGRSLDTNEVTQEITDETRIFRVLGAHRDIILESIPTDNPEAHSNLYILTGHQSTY
UniProt P48729, sequence (whole entry, looked up): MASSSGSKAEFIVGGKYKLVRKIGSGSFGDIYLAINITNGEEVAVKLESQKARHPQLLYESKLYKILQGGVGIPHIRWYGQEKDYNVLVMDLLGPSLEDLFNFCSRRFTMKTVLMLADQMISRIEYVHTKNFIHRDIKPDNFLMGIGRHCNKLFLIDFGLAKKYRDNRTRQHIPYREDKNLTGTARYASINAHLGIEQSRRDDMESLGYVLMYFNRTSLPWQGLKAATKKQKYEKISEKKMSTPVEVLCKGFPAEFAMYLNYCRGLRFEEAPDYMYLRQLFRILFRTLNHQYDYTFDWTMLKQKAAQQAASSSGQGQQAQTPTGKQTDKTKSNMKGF
UniProt O95382, sequence (whole entry, looked up): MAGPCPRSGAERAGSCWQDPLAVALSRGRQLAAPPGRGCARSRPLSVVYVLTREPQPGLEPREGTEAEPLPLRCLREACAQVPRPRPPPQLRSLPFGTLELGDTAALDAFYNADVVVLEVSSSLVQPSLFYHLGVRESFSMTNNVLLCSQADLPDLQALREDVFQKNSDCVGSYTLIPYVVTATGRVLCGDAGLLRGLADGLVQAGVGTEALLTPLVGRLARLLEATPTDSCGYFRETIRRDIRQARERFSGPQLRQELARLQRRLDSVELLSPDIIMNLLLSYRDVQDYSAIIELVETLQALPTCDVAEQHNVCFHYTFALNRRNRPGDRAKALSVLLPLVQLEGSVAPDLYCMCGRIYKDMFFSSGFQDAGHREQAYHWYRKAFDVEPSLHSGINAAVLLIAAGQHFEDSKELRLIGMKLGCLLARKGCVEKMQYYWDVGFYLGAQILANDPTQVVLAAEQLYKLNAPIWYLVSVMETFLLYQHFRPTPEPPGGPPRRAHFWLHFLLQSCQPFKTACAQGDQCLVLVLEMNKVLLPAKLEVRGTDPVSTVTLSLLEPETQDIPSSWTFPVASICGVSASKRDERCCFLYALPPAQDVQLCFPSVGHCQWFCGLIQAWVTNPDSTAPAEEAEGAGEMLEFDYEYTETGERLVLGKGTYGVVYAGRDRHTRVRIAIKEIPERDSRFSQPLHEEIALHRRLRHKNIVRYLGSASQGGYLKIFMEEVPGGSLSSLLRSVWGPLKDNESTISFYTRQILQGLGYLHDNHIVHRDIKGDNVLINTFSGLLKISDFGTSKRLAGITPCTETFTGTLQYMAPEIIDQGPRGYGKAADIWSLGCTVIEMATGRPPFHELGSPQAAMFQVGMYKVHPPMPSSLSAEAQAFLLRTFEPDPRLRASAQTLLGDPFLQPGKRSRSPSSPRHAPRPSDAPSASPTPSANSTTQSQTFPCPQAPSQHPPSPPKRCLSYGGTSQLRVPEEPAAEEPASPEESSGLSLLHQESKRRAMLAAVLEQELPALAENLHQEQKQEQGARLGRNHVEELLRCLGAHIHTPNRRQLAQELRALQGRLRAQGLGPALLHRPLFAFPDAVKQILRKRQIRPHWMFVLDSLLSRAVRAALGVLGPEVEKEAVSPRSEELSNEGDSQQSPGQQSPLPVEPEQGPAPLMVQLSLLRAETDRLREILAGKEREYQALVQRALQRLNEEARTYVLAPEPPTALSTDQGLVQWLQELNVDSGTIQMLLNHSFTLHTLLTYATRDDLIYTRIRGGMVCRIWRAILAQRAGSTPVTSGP
UniProt Q9HBY8, sequence (whole entry, looked up): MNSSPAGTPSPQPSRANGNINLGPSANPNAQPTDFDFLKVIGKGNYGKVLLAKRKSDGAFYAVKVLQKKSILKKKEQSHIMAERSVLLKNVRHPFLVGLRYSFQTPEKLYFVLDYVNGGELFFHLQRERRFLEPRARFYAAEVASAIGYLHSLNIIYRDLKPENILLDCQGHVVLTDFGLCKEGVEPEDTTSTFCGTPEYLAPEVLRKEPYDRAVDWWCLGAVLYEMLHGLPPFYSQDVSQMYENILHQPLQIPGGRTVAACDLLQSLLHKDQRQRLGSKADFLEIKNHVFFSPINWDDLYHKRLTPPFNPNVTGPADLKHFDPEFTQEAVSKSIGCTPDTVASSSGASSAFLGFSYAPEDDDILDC

Block 1 — effect on: enzyme activity; action: inhibitor; concentration: 10 µM
Target: Calcium/calmodulin-dependent protein kinase type II subunit alpha (CAMK2A, Homo sapiens, UniProt Q9UQM7)
UniProt Q9UQM7, sequence (whole entry, looked up): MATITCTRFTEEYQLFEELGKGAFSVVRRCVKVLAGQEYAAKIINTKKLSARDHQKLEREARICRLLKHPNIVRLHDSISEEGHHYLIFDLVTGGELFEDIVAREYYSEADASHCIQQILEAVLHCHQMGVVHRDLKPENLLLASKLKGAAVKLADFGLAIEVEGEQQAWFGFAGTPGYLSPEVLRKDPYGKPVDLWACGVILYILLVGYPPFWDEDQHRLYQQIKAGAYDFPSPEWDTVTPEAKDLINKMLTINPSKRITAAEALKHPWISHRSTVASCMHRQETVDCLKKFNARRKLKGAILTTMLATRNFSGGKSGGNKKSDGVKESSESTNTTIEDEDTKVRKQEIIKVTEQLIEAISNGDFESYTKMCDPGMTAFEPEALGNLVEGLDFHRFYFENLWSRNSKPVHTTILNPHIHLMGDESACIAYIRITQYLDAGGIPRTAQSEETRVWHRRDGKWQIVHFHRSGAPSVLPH
`COc1ccc2[nH]c([S+]([O-])Cc3ncc(C)c(OC)c3C)nc2c1` (centres unmarked) has an inhibition of -3%.
For `Cc1cc(C(C)(C)C)cc(C)c1CC1=NCCN1`, the inhibition was -6%.
`CSc1ccc2c(c1)N(CCC1CCCCN1C)c1ccccc1S2` (centres unmarked) has an inhibition of -3%.
`CNC(=O)c1cccnc1` gave an inhibition of 3%.
With `O=c1c(O[C@@H]2O[C@H](CO[C@@H]3O[C@H](CO)[C@@H](O)[C@H](O)[C@H]3O)[C@@H](O)[C@H](O)[C@H]2O)c(-c2ccc(O)cc2)oc2cc(O)cc(O)c12` the inhibition was -32%.
With `CN(C)CCc1c[nH]c2ccc(CS(=O)(=O)N3CCCC3)cc12` the inhibition was -5%.
`CO[C@@H]1[C@H](OC(=O)/C=C/C=C/C=C/C=C/C(=O)O)CC[C@]2(CO2)[C@H]1[C@@]1(C)O[C@@H]1CC=C(C)C` gave an inhibition of -8%.
The inhibition of `COc1ccc2ccc(=O)oc2c1CC=C(C)C` is reported as -21%.
With `Clc1ccc(C(Cn2ccnc2)OCc2c(Cl)cccc2Cl)c(Cl)c1` (centres unmarked) the inhibition was -10%.

Block 2 — concentration: 10 µM
Structure (SMILES): Cc1sc(C(=O)NC2COC2)cc1-n1cc(NC(=O)Nc2c(F)cccc2Cl)cn1
GSK3A (Homo sapiens, UniProt P49840); enzyme activity; baseline: untreated control — remaining activity: 128%.
The remaining activity was 93% (MAP2K4 (Homo sapiens, UniProt P45985); enzyme activity; baseline: untreated control).
The remaining activity was 94% (SGK2 (Homo sapiens, UniProt Q9HBY8); enzyme activity; baseline: untreated control).
For NEK6 (Homo sapiens, UniProt Q9HC98); enzyme activity; baseline: untreated control: remaining activity read 93.3%.
KSR1 (Homo sapiens, UniProt Q8IVT5); enzyme activity; baseline: untreated control — remaining activity: 103%.
For MAPK8 (Homo sapiens, UniProt P45983); enzyme activity; baseline: untreated control: remaining activity read 74.2%.
For CSNK1G2 (Homo sapiens, UniProt P78368); enzyme activity; baseline: untreated control: remaining activity read 99.1%.
MAP3K6 (Homo sapiens, UniProt O95382); enzyme activity, inhibitor — remaining activity: 79.3%.
It gave 105% for remaining activity (MAP3K8 (Homo sapiens, UniProt P41279); enzyme activity; baseline: untreated control).
For Cyclin-dependent kinase 18, with cyclin Y (CDK18, Homo sapiens, UniProt Q07002); enzyme activity; baseline: untreated control: remaining activity read 118%.
The remaining activity was 120% (PRKG1 (Homo sapiens, UniProt Q13976); kinase activity, kinase panel profiling).
The remaining activity was 105% (Cyclin-dependent kinase 2, with cyclin O (CDK2, Homo sapiens, UniProt P24941); enzyme activity; baseline: untreated control).
The remaining activity was 104% (PAK2 (Homo sapiens, UniProt Q13177); enzyme activity; baseline: untreated control).
The remaining activity was 105% (EPHA3 (Homo sapiens, UniProt P29320); enzyme activity; baseline: untreated control).

Block 3 — effect on: cell-free assay; technique: competition with immobilised ligand; concentration: 1 µM
Compound: O=C(NC[C@@H]1[C@H]2CN(C(=O)OCc3cc(C(F)(F)F)cc(C(F)(F)F)c3)C[C@@H]12)c1ccc2[nH]nnc2c1
EGFR (Homo sapiens, UniProt P00533, del752-759) — remaining binding: 100%.
The remaining binding was 84% (TXK (Homo sapiens, UniProt P42681)).
It gave 100% for remaining binding (DCLK3 (Homo sapiens, UniProt Q9C098)).
EGFR (Homo sapiens, UniProt P00533, L861Q) — remaining binding: 100%.
The remaining binding was 100% (AKT1 (Homo sapiens, UniProt P31749)).
For PIK3CA (Homo sapiens, UniProt P42336, H1047Y): remaining binding read 62%.
It gave 84% for remaining binding (Tyrosine-protein kinase ABL1, non-phosphorylated (ABL1, Homo sapiens, UniProt P00519, H396P)).
The remaining binding was 75% (PIK3CD (Homo sapiens, UniProt O00329)).
The remaining binding was 97% (MAP4K5 (Homo sapiens, UniProt Q9Y4K4)).

Block 4 — effect on: enzyme activity; action: inhibitor; concentration: 0.5 µM; baseline: control
Structure (SMILES): CN(C)S(=O)(=O)c1ccc2c(c1)/C(=C/c1cc3c([nH]1)CCCC3)C(=O)N2
It gave 95.9% for remaining activity (PRKCI (Homo sapiens, UniProt P41743)).
The remaining activity was 97.4% (BTK (Homo sapiens, UniProt Q06187)).
The remaining activity was 103% (MAPK13 (Homo sapiens, UniProt O15264)).
The remaining activity was 103% (MAPK12 (Homo sapiens, UniProt P53778)).
The remaining activity was 94.6% (STK38 (Homo sapiens, UniProt Q15208)).
KIT (Homo sapiens, UniProt P10721) — remaining activity: 60.7%.
The remaining activity was 105% (CSNK2A1 (Homo sapiens, UniProt P68400)).
The remaining activity was 85.1% (EPHA5 (Homo sapiens, UniProt P54756)).
The remaining activity was 99.9% (NEK4 (Homo sapiens, UniProt P51957)).
Cyclin-dependent kinase 9, with cyclin T1 (CDK9, Homo sapiens, UniProt P50750) — remaining activity: 95.9%.
It gave 91.7% for remaining activity (CSNK1A1 (Homo sapiens, UniProt P48729)).
It gave 84.1% for remaining activity (MKNK2 (Homo sapiens, UniProt Q9HBH9)).
MAP3K10 (Homo sapiens, UniProt Q02779) — remaining activity: 99.1%.
It gave 94.6% for remaining activity (MAP2K6 (Homo sapiens, UniProt P52564)).
The remaining activity was 20.8% (MAP4K2 (Homo sapiens, UniProt Q12851)).
AKT3 (Homo sapiens, UniProt Q9Y243) — remaining activity: 96.7%.
The remaining activity was 82.5% (PRKG1 (Homo sapiens, UniProt Q13976)).
WNK2 (Homo sapiens, UniProt Q9Y3S1) — remaining activity: 101%.
The remaining activity was 76.3% (CHEK1 (Homo sapiens, UniProt O14757)).
It gave 94.4% for remaining activity (PLK2 (Homo sapiens, UniProt Q9NYY3)).
LRRK2 (Homo sapiens, UniProt Q5S007) — remaining activity: 1.78%.
It gave 57.7% for remaining activity (IRAK4 (Homo sapiens, UniProt Q9NWZ3)).
PRKCD (Homo sapiens, UniProt Q05655) — remaining activity: 95.5%.

Mixed results
Under “patients with LDH increased TEAE”, `CC(C)n1cnc(-c2ccc(F)cc2)c1-c1ncc(C(=O)Nc2ccc(N3CCN(C)CC3)cc2)[nH]1` is recorded as 0% (phase 2a clinical trial; patients with idiopathic pulmonary fibrosis; 30 mg once daily).

Some of these lines once more (block 3):
The remaining binding was 84% (TXK (Homo sapiens, UniProt P42681)).
The remaining binding was 75% (PIK3CD (Homo sapiens, UniProt O00329)).
It gave 100% for remaining binding (DCLK3 (Homo sapiens, UniProt Q9C098)).
EGFR (Homo sapiens, UniProt P00533, L861Q) — remaining binding: 100%.
The remaining binding was 100% (AKT1 (Homo sapiens, UniProt P31749)).
The remaining binding was 97% (MAP4K5 (Homo sapiens, UniProt Q9Y4K4)).
EGFR (Homo sapiens, UniProt P00533, del752-759) — remaining binding: 100%.
It gave 84% for remaining binding (Tyrosine-protein kinase ABL1, non-phosphorylated (ABL1, Homo sapiens, UniProt P00519, H396P)).
